Measurements pooled from the literature.
Each numbered part is a random draw from the data of one study; scales do not carry over between parts. Positions count from the first letter of the parent shown.

Series 1
Target: Histone acetyltransferase KAT6A, both winged helices, GST fusion (KAT6A, Homo sapiens, UniProt Q92794, residues 1-181)
Method: protein binding microarray
Molecule type: double-stranded DNA, one strand shown
Medium: in vitro
Concentration: not given
Setting: 8-mer, flanks averaged, mean of 2 arrays, mostly near background
Relative to: not given
Direction: higher = stronger binding
Endpoint: E-score
Construct (chain): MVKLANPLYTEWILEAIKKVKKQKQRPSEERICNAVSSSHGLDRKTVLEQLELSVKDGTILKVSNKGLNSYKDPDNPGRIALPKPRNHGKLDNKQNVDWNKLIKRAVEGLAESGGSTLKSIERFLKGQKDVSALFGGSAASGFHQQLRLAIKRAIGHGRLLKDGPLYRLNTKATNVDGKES
GAATCGGC: 0.138
TCATACAA: -0.00512
GACTGCTA: -0.177
CCATAGAA: -0.0666
CGTGACAA: 0.0264
CACGTCAA: -0.14
CATTAACG: 0.0328
GGCTCTGA: -0.277
CGTAGCCA: 0.0879
GGCGTAGA: 0.0105
AACGACTA: 0.00715
CAACCGCA: 0.158
AGGCTAGA: -0.142
ACGTCGAA: -0.0126
CCGCAATA: 0.161
ACTAAGCC: -0.0271
ATCAGAAG: -0.0677
ACCCACCG: 0.0748
CGCATCAG: 0.179
AGCATCTC: -0.209
TCATTGAA: 0.0281

Series 2
Target: RNA binding protein fox-1 homolog 2, RRM domain, GST-SBP tag (RBFOX2, Homo sapiens, UniProt O43251-10, residues 100-194)
Method: RNA Bind-n-Seq
Molecule type: RNA
Medium: in vitro
Concentration: 365 nM
Setting: natural RNA segment, single round, ends assumed
Relative to: no-protein control
Direction: higher = stronger binding
Endpoint: RBNS enrichment (R)
All sequences stand within: GGGAGUUCUACAGUCCGACGAUC … UGGAAUUCUCGGGUGCCAA
Residues (chain): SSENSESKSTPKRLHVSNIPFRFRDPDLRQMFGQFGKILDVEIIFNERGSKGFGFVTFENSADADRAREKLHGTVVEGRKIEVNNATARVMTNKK
UCGUUUGCGUUGAGAAUUGGCAUGCAGUGUGUGUGAGCCGAGGGCCUCCUCAGUGUUCCACAAGCUUCAGGUCAUCAGGUCGGUCCAACUGAAGGCAUGAAAAUCAAGUG: 4.54
AAUGCCAGAAGGAAAACACUAUUUUCAUACCCUACUUUUUCUGUACCUAAAUUUUCUUAAAAAAAAAUCUAGUAUAGCACUACAUUCUUUUUUAAGUGAUGCAGACCUUA: 0.389
UACCCAUCCCCUGAUGCCCAGGUCACCGGGAGGGCUGCUGGGAGCCUCUCCUGUCCCCGCCGGGCAGUGUCACUGAGUCCUUGAAAUCCUCCCCUGCCCCGCGGGUCUCU: 0.443
UUCAAAAAGCACAAUCAAUCUUUUGUUUGAAAAUCUAUAUAAAGUACAACUUGCUUUUAGCAUGAUUAUUUUCCUAAAUAAAAAGACAAAGAAUUUACUUACUUUAUGUU: 18.7
UGAACUAUUCAUCAGUACUUUCUCCUCCCAUCCUAAGCUUCUCAUUUUAGGAACUGACAUGAUAAGGUGGUUCUUUCAUAACUCUAAUGCCAUCCAACAUAGCCCUGGGA: 0.669
AGUUUUAAACCUGUUAAAUUAAUUUUGACAAAUAAGUUACCCUCAACUCAGAUCAAAAAUGGGCAGCCAAGUCUUCGGUAGGAAUUGGAGCCGGUGUAAUUCCUCCCUAA: 0.407
GAACAGGAAUGAAAGGAAACCUUCCCUUAACUCUUUCUGCUUCCCAUAGCAGGUCUGGUUCCUGCUCCCCGCCUAGGACAGGAGCUGUCUGGAGCUCCACCUUUGCAAAG: 0.432
AAAACCAGACCACAGCACAGCCAGGGAGCCCAGUAGUGUUUCCAAGAACAGUGUGGAGCUUGAGAAAGAGAACUUUAAAAAUUAGAGGGUCCCUUUCUGCAGAGGAAGGG: 0.3
GUCUAUAAAGGCCAUUACAGACCCAAGGCUGUUUUGCAGUUUUCAUAUGUUGUUUGCUGAAGUCAUUGUAAUUUUUUUUGCCUGCUUUGCCUUUUUUUCUACAGGAGUUU: 1.8
CUGAGGAUAUUAAUUCCCAUUAUAUAACCAUAAUUCUGUGACUUGUAAUAAACCAAGCUGUACAAUUUAGUUUAUAAUAGCAGUAUCUGAGCUGCUCCAAAAUAUAUAUA: 0.449
UCACUGUGAGCAUGUCAGAGGCUUUCUGUGUAGAUGUCCUGCCAUGGGUGAUGUGUGAUCUACCAGUGGCUGGGUUCACCCAUCAGUAAUCAGAGCAAGACAAAUGAGAG: 1.42
CUCCCGGGGCCCCCACUGUGGAGAUAAGAAGGGGAUGGAAUGGGGGAAGAGGAGGAGCAGGAGGCCCUCAUCCUUCUGCUGCCCUGGGGUUGGGGCCUCACCCCUCUGGA: 0.935

Series 3
Target: CCNF, cyclin fold, Cln2 fusion (human)
Method: yeast growth competition, sequencing
Medium: yeast
Setting: strong parent motif
Relative to: not given
Direction: higher = stronger binding
Endpoint: normalised enrichment score
Starting sequence: RB1 docking peptide (human); PKPLKKLRFDIEG
L7I: 1.13
K6S: 1.23
R8E: 2.35
P3R: 1.63
L7P: 0.365
G13T: 0.389
E12A: 0.891
L7T: 1.02
E12C: 2.39
D10M: 2.33
K2V: 1.35

Series 4
Target: ABI1, truncated, D143A, DHFR fusion (Arabidopsis thaliana)
Method: DHFR PCA, deep sequencing
Medium: yeast
Setting: methotrexate growth selection, single substitutions
Together with: (+)-ABA 1.4 µM
Relative to: wild-type fitted maximum
Direction: higher = stronger binding
Endpoint: relative binding score
Starting sequence: PYL1, truncated, DHFR fusion (Arabidopsis thaliana); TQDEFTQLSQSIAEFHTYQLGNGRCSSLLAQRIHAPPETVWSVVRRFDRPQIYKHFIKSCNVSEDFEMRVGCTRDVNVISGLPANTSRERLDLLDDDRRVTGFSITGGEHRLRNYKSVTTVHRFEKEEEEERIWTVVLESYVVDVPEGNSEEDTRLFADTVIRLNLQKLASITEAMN
R99L: 73.9%
M68C: 36.9%
V100E: -5.57%
N177F: 37%
E64P: 65.1%
Q7K: 57.4%
R98L: 44.3%
A84D: 11%
I162K: 5.57%
N85A: 71.2%
C25Q: -4.95%
L169C: -4.08%
S27A: 28.4%
V137T: -3.94%
E130W: 19.4%
E128I: 40.5%
L164K: 9.29%

Series 5
Target: Protein C-ets-1 (ETS1, Homo sapiens, UniProt P14921, residues 1-441, Y397A, full length assumed)
Sequence of UniProt P14921 (whole entry, unmodified, looked up): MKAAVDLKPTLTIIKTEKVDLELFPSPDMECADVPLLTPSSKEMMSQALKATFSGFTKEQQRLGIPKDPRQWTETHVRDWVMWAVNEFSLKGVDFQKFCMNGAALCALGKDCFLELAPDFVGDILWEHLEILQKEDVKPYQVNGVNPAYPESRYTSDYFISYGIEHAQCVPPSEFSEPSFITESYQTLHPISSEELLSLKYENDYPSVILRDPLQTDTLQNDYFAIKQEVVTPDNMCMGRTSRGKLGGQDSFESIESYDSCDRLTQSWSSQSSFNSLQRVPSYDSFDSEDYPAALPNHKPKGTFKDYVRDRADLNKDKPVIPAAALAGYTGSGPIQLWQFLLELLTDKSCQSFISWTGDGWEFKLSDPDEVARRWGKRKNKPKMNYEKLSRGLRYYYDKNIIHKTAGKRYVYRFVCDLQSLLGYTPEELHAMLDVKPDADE
Method: protein-binding microarray
Molecule type: double-stranded DNA, one strand shown
Medium: in vitro
Concentration: not given
Setting: k-mer, scored over probes, only values ≥0.25
Direction: higher = stronger binding
Endpoint: E-score
TGCCGGAA: 0.414
CGTTTGTC: 0.299
ATGGGGAA: 0.267
AATTGGCA: 0.345
TATCAACA: 0.26
CGGAAATA: 0.337
ACCCACCC: 0.318
ATGTTACA: 0.255
ACAAACGT: 0.252
ACATGTAC: 0.349
CGACAATC: 0.366
ATGTTGAC: 0.294

Series 6
Target: Ras GTPase-activating protein-binding protein 1, full length (G3BP1, Homo sapiens, UniProt Q13283)
Sequence of UniProt Q13283 (whole entry, looked up): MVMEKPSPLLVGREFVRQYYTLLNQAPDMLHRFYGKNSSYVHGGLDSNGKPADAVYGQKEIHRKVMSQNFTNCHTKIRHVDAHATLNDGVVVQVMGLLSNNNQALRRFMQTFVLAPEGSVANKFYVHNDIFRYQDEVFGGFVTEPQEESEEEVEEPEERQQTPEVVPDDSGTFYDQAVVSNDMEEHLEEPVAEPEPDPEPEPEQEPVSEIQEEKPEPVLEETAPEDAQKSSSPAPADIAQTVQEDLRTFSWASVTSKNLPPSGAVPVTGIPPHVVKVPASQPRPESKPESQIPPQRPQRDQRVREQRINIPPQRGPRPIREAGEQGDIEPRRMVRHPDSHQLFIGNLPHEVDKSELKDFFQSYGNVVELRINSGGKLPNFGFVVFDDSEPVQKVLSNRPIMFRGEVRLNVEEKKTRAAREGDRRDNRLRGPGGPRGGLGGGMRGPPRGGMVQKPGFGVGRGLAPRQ
Method: RNA Bind-n-Seq
Molecule type: RNA
Medium: in vitro
Concentration: 200 nM
Setting: whole 134-nt RNA, ends assumed
Together with: 150 mM KCl
Relative to: input library
Direction: higher = stronger binding
Endpoint: log2 enrichment
All sequences stand within: GGGAGUUCUACAGUCCGACGAUC … UGGAAUUCUCGGGUGUCAAGG
CAAGUCCUGUGCUACACAUCGUAUGUACCGAAUCGGGCCCCGGCCCCGGCCCCGGGAAAGUAUUAUGUUACGCCGUUCGGAUCUGCACUU: -0.812
UGUCUCGAGCAGGGGACAAGACGUUCGAGGAGUACCUGGAUGAGUAUUACCGGCUGGACUACGAGGACAUCAUCGACGACCUGCCCUGUC: -0.599
UUGUGAUUAAGAUUUGUUCUUUUUCUCCCCUCUCUAUAGGAAGAUGAUCCCUAUGAUCUUGAAGAUGUUUCUGCACAGAAAUGAGGGAAA: 0.598
GUCCUGUGCUACACAUCGUAUGUACCGAAUCAAACCCAAACCCCCAAACCCCCCCAAAAAAGUAUUAUGUUACGCCGUUCGGAUCUGCAC: -0.282
ACCAUGCAGGUGGGCAUCUUUGGGAAGUGGGGCAAGGGGGGGAUAGGGAGGGGGGUAACAAAUUGGGAACAGGUGGUCCCAGGUCGUUUC: 1.1
CAAGUCCUGUGCUACACAUCGUAUGUACCGAAUCGGUUUUUUUGGUUUGGAAAGGAAAGUAUUAUGUUACGCCGUUCGGAUCUGCACUUC: -1.17
CCUCAAGUCCUGUGCUACACAUCGUAUGUACCGAAUCGGGAAGGAAGGAAGGAAAGUAUUAUGUUACGCCGUUCGGAUCUGCACUUCCAG: -0.0422
UCCUGUGCUACACAUCGUAUGUACCGAAUCGGGAAAAAAAGGGUUUUUGGGUUUUUGGGAAAGUAUUAUGUUACGCCGUUCGGAUCUGCA: -0.577
CGGCAGUAGCAGCAGCGCCGGGUCCCGUGCGGAGGUGCUCCUCGCAGAGUUGUUUCUCGAGCAGCGGCAGUUCUCACUACAGCGCCAGGA: -0.97

Repeated from above (series 4):
R98L: 44.3%
A84D: 11%
I162K: 5.57%
N85A: 71.2%
C25Q: -4.95%
L169C: -4.08%
S27A: 28.4%
V137T: -3.94%
E130W: 19.4%
E128I: 40.5%
